Results from different studies.
Parts stem from different laboratories: compare values within a part only.
Chain of UniProt Q13237 (whole entry, looked up): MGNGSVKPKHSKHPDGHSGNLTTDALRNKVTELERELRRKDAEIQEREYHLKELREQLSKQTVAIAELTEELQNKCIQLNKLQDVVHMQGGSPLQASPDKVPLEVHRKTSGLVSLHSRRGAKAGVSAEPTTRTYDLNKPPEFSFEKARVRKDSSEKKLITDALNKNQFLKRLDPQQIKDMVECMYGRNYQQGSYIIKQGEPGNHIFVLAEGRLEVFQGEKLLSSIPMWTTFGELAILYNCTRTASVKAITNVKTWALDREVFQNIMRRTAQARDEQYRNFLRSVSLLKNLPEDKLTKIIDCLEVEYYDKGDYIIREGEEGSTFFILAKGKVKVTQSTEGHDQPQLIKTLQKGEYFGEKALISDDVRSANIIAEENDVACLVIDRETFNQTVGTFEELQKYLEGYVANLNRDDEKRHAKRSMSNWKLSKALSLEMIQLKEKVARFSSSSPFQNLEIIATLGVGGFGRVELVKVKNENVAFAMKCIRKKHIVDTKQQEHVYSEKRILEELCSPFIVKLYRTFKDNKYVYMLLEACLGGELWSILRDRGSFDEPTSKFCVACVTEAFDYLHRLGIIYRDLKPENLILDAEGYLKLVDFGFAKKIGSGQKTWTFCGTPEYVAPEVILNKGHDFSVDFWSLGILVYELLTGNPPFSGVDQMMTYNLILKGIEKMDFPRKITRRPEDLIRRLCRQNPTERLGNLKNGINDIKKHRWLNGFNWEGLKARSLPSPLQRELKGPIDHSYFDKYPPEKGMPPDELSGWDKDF
Chain of UniProt Q7KZI7 (whole entry, looked up): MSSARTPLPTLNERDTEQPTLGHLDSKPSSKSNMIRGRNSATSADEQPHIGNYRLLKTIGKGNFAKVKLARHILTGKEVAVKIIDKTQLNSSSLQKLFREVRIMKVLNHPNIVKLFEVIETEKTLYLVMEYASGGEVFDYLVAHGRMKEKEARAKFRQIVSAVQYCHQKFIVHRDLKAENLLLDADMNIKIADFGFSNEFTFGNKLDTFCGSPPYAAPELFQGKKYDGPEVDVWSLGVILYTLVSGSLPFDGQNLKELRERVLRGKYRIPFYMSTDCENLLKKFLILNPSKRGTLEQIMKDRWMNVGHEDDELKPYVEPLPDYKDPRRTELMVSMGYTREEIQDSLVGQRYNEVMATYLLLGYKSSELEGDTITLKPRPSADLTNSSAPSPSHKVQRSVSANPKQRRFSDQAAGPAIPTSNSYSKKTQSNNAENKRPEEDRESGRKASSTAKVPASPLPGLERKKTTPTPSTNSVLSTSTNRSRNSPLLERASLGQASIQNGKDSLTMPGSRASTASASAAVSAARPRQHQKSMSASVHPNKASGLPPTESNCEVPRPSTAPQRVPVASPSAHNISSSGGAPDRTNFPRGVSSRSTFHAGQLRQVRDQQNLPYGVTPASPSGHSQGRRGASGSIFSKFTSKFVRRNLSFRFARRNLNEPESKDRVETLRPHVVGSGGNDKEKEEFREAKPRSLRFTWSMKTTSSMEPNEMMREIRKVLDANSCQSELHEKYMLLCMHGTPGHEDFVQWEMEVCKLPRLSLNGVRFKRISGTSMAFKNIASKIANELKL
Chain of UniProt P31751 (whole entry, looked up): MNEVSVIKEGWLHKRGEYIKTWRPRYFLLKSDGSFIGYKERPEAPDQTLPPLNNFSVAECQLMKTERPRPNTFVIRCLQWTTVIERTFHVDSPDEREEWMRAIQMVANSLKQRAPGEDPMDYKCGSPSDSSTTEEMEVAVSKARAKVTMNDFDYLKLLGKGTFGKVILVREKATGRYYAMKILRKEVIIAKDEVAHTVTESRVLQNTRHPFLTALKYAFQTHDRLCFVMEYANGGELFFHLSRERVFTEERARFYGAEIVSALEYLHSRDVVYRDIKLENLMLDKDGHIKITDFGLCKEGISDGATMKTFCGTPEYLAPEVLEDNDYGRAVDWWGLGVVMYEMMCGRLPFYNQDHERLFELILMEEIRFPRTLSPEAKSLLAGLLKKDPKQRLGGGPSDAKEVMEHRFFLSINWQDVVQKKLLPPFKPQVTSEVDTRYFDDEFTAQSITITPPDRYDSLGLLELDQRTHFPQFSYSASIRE
Chain of UniProt Q16832 (whole entry, looked up): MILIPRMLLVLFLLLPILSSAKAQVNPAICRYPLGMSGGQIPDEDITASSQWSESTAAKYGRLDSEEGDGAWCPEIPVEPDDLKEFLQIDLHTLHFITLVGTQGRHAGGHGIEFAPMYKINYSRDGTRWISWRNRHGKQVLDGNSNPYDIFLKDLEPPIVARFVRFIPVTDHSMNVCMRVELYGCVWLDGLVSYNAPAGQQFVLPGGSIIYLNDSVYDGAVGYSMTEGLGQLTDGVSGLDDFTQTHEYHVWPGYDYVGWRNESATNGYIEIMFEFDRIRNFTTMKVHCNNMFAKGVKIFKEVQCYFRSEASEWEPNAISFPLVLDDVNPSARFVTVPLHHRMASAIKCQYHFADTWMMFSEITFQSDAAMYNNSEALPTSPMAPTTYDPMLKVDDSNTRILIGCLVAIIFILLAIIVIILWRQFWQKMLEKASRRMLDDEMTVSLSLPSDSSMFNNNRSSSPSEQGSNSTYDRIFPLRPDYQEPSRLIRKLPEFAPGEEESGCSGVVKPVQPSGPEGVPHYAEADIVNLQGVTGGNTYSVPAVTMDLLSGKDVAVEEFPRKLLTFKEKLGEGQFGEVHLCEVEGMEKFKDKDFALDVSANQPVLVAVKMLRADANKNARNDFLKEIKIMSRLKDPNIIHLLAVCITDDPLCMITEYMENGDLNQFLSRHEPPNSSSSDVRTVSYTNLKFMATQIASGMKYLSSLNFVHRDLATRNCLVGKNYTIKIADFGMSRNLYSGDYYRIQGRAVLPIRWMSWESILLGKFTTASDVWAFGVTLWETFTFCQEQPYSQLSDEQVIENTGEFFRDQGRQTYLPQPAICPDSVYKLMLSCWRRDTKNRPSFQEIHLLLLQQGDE
Chain of UniProt Q9HAZ1 (whole entry, looked up): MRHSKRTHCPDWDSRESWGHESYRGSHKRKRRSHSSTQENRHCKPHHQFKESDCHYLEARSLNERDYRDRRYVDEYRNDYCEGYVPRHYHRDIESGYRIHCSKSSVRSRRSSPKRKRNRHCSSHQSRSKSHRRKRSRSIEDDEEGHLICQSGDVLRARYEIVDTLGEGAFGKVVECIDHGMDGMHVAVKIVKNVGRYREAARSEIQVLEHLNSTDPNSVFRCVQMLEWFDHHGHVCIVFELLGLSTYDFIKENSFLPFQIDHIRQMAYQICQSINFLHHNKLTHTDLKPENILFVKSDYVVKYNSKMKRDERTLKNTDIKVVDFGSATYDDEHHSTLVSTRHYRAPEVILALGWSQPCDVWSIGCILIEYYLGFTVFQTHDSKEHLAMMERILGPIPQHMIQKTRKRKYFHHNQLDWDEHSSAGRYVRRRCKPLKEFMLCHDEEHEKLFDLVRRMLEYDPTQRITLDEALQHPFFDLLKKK
Chain of UniProt Q8N568 (whole entry, looked up): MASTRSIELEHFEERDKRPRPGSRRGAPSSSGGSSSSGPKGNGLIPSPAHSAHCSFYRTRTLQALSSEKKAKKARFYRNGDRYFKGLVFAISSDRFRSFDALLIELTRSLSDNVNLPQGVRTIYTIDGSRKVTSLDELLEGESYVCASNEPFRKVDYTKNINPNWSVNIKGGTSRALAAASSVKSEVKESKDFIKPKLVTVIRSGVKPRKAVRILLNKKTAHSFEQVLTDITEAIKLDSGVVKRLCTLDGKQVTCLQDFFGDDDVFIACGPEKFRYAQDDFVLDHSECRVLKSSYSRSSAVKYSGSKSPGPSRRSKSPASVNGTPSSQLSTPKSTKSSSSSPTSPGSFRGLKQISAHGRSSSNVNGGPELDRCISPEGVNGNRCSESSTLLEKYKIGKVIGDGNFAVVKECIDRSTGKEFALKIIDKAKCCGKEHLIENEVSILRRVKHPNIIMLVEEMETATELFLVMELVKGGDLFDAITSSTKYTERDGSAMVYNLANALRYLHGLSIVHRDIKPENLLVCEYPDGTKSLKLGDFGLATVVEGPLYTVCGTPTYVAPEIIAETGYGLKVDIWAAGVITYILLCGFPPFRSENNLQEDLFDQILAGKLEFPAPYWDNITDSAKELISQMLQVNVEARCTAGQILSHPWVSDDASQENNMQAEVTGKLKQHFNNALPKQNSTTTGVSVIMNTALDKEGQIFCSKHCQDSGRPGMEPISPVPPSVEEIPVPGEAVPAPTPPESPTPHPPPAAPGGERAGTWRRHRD
Chain of UniProt P49761 (whole entry, looked up): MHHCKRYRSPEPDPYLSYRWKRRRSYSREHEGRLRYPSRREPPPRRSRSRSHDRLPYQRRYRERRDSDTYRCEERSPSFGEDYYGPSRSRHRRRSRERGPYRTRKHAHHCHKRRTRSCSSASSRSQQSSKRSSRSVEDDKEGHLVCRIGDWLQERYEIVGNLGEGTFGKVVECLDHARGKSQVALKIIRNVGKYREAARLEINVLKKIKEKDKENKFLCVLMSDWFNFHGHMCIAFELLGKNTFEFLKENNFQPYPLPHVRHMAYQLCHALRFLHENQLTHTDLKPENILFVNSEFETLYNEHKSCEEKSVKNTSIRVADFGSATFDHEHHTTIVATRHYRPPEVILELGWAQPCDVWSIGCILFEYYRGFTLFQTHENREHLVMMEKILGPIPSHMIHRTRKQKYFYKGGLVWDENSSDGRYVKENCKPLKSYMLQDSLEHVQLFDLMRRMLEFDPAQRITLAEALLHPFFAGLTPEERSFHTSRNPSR

Block 1 — cell line: sample D normal colon organoid; technique: CellTiter-Glo; tested at: 0.1 µM; setting: mean of replicates; baseline: DMSO
The viability of `Cc1c[nH]c2nccc(Oc3c(F)cc(Nc4cc(Cl)nc(N)n4)cc3F)c12` is reported as 120%.
`COCCOc1nc(-c2ccc(Cl)nc2)nc2c1CN(C(=O)c1ncn3ccccc13)CC2` gave a viability of 119%.
`O=C(c1ccc(F)cc1)N1CC(COc2ccc(Br)cc2)(C(=O)O)C1` has a viability of 103%.
The viability of `CC(C)CC(=O)N1CCc2nc(-c3ccc(Br)cc3)nc(N(C)Cc3ccccc3)c2C1` is reported as 117%.
`CCS(=O)(=O)c1cc2cc(C[C@@](O)(CC(C)(C)c3ccc(F)cc3C(N)=O)C(F)(F)F)[nH]c2cn1` gave a viability of 142%.
`Nc1cnc(N2CCc3cc(S(=O)(=O)Nc4c(F)cc(Cl)cc4F)cc(N4CCCC4=O)c32)nc1` gave a viability of 151%.
For `O=S(=O)(NC1CCC(c2cc(F)ccc2F)(S(=O)(=O)c2ccc(Cl)cc2)CC1)C(F)(F)F` (stereo not shown), the viability was 101%.
`O=C(O)[C@H]1[C@H](Cn2nnc3ccccc3c2=O)CC[C@@H]1C(=O)c1ccc(OCCC2CCOCC2)cc1` gave a viability of 112%.
The viability of `CN(C)C(=O)Cn1cc(-c2nc([C@@](C)(c3ccc(-c4cnc(N)nc4)cc3)C3CC3)no2)cn1` is reported as 84%.
For `CS(=O)(=O)NCC[C@H](NC(=O)c1cncc2c1cnn2-c1ccc(F)cc1)c1ccnc(S(C)(=O)=O)c1`, the viability was 102%.
For `CCOC(=O)c1cc2cc(-c3cc(C(=O)NCc4ccc(C(=O)O)cc4)nn3C)ccc2[nH]1`, the viability was 111%.
For `CCCOc1ccc([C@@H]2[C@@H](C(=O)O)[C@H](c3ccc4c(c3)OCO4)CN2CC(=O)Nc2c(CC)cccc2CC)cc1`, the viability was 92.8%.
With `COc1ccc2cc(OCC3(C(=O)O)CN(C(=O)c4ccc(F)cc4)C3)ccc2c1` the viability was 107%.
For `Cc1ccc(-c2cnc([C@@]3(O)CC[C@H](C(=O)O)C(C)(C)C3)s2)cc1Nc1cccc(C(F)(F)F)n1`, the viability was 92.2%.
For `COc1cccc(CNC(=O)c2nc3scc(COCc4ccc(C(=O)O)cc4)c3c(=O)[nH]2)c1`, the viability was 85.9%.

Block 2 — technique: competition protein-binding microarray; molecule type: double-stranded DNA, one strand shown; medium: in vitro; tested at: 2 µM; together with: Cbf1 competitor, 0.05 µM; direction: higher = stronger binding; constant ends, left off below: … GTCTTGATTCGCTTGACGCTGCTG
Target: Phosphate system positive regulatory protein PHO4, full length, GST-tagged (PHO4, Saccharomyces cerevisiae, UniProt P07270, residues 1-312)
Setting: whole 60-bp probe, lowest competitor level
Target sequence (chain): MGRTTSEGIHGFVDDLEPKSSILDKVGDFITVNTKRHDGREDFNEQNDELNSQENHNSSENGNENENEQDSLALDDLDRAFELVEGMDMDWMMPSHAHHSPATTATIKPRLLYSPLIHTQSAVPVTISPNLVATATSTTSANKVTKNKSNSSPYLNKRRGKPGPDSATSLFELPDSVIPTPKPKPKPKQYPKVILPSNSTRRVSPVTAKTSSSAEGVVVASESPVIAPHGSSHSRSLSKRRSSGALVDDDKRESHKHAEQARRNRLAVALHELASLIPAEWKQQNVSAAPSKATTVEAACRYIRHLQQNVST
`TCAGCTCTTAGATGTAATGTGACGGCAGCCATTTTT` has a fluorescence intensity of 3810 a.u.
For `TCAATTCTCCAGTACGGCGTGGGTACAGAACATGGC`, the fluorescence intensity was 10100 a.u.
For `CGGGGTTAAGTTTGAGAAGTGGGTGGCTTGCAGCAG`, the fluorescence intensity was 4410 a.u.
The fluorescence intensity of `TCCACCAACGATGGGTCCGTGACGAATGGTTCAACG` is reported as 4970 a.u.
The fluorescence intensity of `TGCGCAACAACTTGTCTAGTGGGTGTATGTCTAGAA` is reported as 4710 a.u.
`CGACTTTTTTCTTTTCACCTGCAGCTTGAGCCAAAC` has a fluorescence intensity of 3470 a.u.
For `CTCTTTCAGATTCGTCACGATTTTATGAAAGAAATA`, the fluorescence intensity was 6260 a.u.
For `GTATGCACCATCTTTCATGTGGGAAATAAGCTTTTT`, the fluorescence intensity was 5390 a.u.

Block 3 — technique: RNA Bind-n-Seq; molecule type: RNA; medium: in vitro; tested at: not given; baseline: input RNA pool; direction: higher = stronger binding
Target: RING finger protein unkempt homolog, zinc fingers 1-6, GST-SBP tag (UNK, Homo sapiens, UniProt Q9C0B0, residues 30-357)
Chain of UniProt Q9C0B0 (30-357, looked up): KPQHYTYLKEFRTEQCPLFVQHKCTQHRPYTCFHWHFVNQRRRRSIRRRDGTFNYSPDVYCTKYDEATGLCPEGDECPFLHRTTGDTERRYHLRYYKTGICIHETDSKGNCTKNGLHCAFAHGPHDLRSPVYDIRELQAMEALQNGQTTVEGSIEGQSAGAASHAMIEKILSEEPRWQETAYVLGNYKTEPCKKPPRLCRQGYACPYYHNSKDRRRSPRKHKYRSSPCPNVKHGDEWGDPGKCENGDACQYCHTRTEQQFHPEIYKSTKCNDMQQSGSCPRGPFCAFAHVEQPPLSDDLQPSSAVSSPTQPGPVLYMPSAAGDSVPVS
Setting: RNA with constant flanks, human-mouse chimeric sites, ends assumed
Constant ends, left off below: GGGAGUUCUACAGUCCGACGAUC … CAACAGAGGAUUGAGCAUCA
For `CAUGUAUCUGCAGUACUUGAUGUGGACUACUCUCCCACUGGGAAGGAGUUUGUGUCUGCCAGCUUUGAUAAGUCUAUUAGAAUCUUUCCUGUGGACAAGAGCCGAAGCAGGGAAGUGUAU`, the bound/input enrichment was 0.437 ratio.
`GUGACUGACAUUAAAAUUUCCCCUCAGCAAAGAAGUGCAGUAGUCACCAUAAUUCCAUCUAUAGUGAGUGCCAGUCAGAUUGUGGAGCUGGUCCCAGACCUCAGUUUAGACAUGGGAACU` gave a bound/input enrichment of 1.14 ratio.
`AAAGUGAUAACCAUGUUUGUCCAACGACAGGUAUUUUCGGAGAGCAAAGAUGAGAUUGCGUUAGUCCUCUAUGGCACAGAUGGCACUGAUAAUGCCCUUGCUGGCAAGGACCAGUAUCAG` has a bound/input enrichment of 0.143 ratio.
For `UAAGUCCUGUGCCAGCAAUUUAUCCCAUAUAUUUUAAAUUCUGGACCAAUAGUGUUUGUUUCCUGAUUAUUGUAUCCAAUACUUUGCCUAGUAUGUAACUCACUCUUACUGAUAAUAAAA`, the bound/input enrichment was 4.33 ratio.
With `CUGAGGAUACCACUGAAGAGACCUUAAAAGGAGUCAUUGAGGGCUCUGUUCGUGCAAGAAUAGUCACUGAUCGGGAAAACUGGGUCCCCAAAGGGUUUGGUUUUGUAGACUUUAAUAGUG` the bound/input enrichment was 0.857 ratio.
For `AAAGUGAUGACUAUGUUUGUCCAACGACAGGUAUUUUCGGAGAGCAAAGAUGAGAUUGCGUUAGUCCUCUAUGGCACAGAUGGCACUGAUAAUGCCCUUUCUGGUGGGGACCAGUAUCAG`, the bound/input enrichment was 0.237 ratio.
`GGACAUCUGUCAAAUUGUUAUGUUCCUAAAAACGUAGUGAACACUCUGAUACACUUCAUUUAGUUGUACAUCUGUAUGAUAGAGAAAUGUAAAUAUGUUAAUCCAAGCAAUGUGUCACUU` has a bound/input enrichment of 0.347 ratio.
For `UAAGUCCUGUGCCAGCACUUCGCUCAUUAUAUUUUAAAUUCUGGACCAAUUGUGUUUGUUUCCUGAUUAUUGUAUCCAAUACUUUGCCUAGUAUGUAACUCACUCUUACUGAUAAUAAAA`, the bound/input enrichment was 4.19 ratio.

Block 4 — read-out: enzyme activity; action: inhibitor; tested at: 0.5 µM; baseline: control
SMILES: c1ccc(-c2cnc(Nc3ccc(OCCN4CCCC4)cc3)s2)cc1
For DDR2 (Homo sapiens, UniProt Q16832): remaining activity read 86.6%.
It gave 96.9% for remaining activity (MAP2K1 (Homo sapiens, UniProt Q02750)).
CLK3 (Homo sapiens, UniProt P49761) — remaining activity: 94.3%.
It gave 97.9% for remaining activity (CLK4 (Homo sapiens, UniProt Q9HAZ1)).
For KDR (Homo sapiens, UniProt P35968): remaining activity read 76.1%.
For MARK2 (Homo sapiens, UniProt Q7KZI7): remaining activity read 88%.
It gave 91.1% for remaining activity (TXK (Homo sapiens, UniProt P42681)).
MAPK11 (Homo sapiens, UniProt Q15759) — remaining activity: 94.7%.
The remaining activity was 92.4% (AKT2 (Homo sapiens, UniProt P31751)).
For MAPK1 (Homo sapiens, UniProt P28482): remaining activity read 83.4%.
The remaining activity was 106% (PRKG2 (Homo sapiens, UniProt Q13237)).
For DCLK2 (Homo sapiens, UniProt Q8N568): remaining activity read 87.6%.

Some of these lines once more (block 2):
For `CGGGGTTAAGTTTGAGAAGTGGGTGGCTTGCAGCAG`, the fluorescence intensity was 4410 a.u.
For `TCAATTCTCCAGTACGGCGTGGGTACAGAACATGGC`, the fluorescence intensity was 10100 a.u.
The fluorescence intensity of `TCCACCAACGATGGGTCCGTGACGAATGGTTCAACG` is reported as 4970 a.u.
`TCAGCTCTTAGATGTAATGTGACGGCAGCCATTTTT` has a fluorescence intensity of 3810 a.u.
The fluorescence intensity of `TGCGCAACAACTTGTCTAGTGGGTGTATGTCTAGAA` is reported as 4710 a.u.
For `GTATGCACCATCTTTCATGTGGGAAATAAGCTTTTT`, the fluorescence intensity was 5390 a.u.
